Published values from different studies.
Each numbered part is a random draw from the data of one study; scales do not carry over between parts.

Study 1
Target: Interferon regulatory factor 7, full length, phosphomimetic (IRF7, Homo sapiens, UniProt Q92985, residues 1-503, S471D/S472D/S475D/S476D/S477D/S483D/S484D/S487D)
Technique: protein-binding microarray
Form: double-stranded DNA, one strand shown
Medium: in vitro
Concentration: 2200 nM top
Setting: 60-bp whole probe
Together with: salmon DNA 0.4 mg/ml
Relative to: random background probes
Reading: higher = stronger binding
Constant ends, left off below: GCCTAGCAC … GTCTTGATTCGCTTGACGCTGCTG
Residues (chain): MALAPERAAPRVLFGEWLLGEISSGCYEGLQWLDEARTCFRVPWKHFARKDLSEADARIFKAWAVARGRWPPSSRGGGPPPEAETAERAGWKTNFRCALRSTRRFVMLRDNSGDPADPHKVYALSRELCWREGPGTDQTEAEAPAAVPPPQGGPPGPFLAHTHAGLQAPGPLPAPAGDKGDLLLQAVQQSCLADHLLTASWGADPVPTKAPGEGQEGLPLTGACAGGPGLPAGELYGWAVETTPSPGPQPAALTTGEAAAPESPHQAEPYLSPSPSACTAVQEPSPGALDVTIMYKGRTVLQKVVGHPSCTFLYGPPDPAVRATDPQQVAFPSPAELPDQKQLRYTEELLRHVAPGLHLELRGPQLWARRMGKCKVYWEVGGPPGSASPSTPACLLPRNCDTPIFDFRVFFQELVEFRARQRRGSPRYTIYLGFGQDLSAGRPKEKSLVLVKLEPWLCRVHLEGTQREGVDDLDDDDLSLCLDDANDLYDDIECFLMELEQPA
| Sequence | fitted relative affinity [z-score] |
| --- | --- |
| GACGGTTTCCTACTGCGGACGTGCTAG | 2.02 |
| GACGATTTCGGGTATAGAGACGTGCTA | 2.16 |
| CTGTTTTTGCTTTCTTTTTGGTGCTAG | 7.15 |
| TAAGGTATCCTTCTCCTTTAGTGCTAG | 1.13 |
| TCAAGTTTCTTTTCTTTACTGTGCTAG | 5.78 |
| TTAAGTCTCCTTATCCTTTAGTGCTAG | 1.12 |
| GACGATATCAATATCGAGACGTGCTAG | 0.161 |
| CTCCACTTGTGTTTGGGCATGTGCTAG | 1.59 |
| TCACTTCTTTTTTATTCTACTGTGCTA | 2.24 |
| TTAGGTTTGGGACTGGGTTAGTGCTAG | -0.0341 |
| TCTACTTCTGTTTTTGCTTTGTGCTAG | 4.29 |
| TTAGGAATCGGTTTCGGTTAGTGCTAG | 6.89 |
| GACAATTTCAGACTGGAGACGTGCTAG | 0.0534 |
| GCTTCTATGTAGTTGATGAAGTGCTAG | 1.2 |
| GACGGTTTCGGTCTCAGGACGTGCTAG | 6.45 |
| GACGGTTTCTTTTCCCTGACGTGCTAG | 3.82 |
| TTAGATATCGGGTTTCGCTTAGTGCTA | 2.62 |
| GAAGCTTCTTTTTTATTCTAGTGCTAG | 0.562 |
| CTAGGTTTCCTTTCCCTTTAGTGCTAG | 5.12 |
| GACGGACTGCTTACCCTGACGTGCTAG | 0.405 |
| TTAGGTATCGGGCTCGGTTAGTGCTAG | 0.148 |

Study 2
Target: Sal-like protein 4, full length isoform B (SALL4, Homo sapiens, UniProt Q9UJQ4-2, residues 1-616)
Technique: universal PBM
Form: double-stranded DNA, one strand shown
Medium: in vitro
Concentration: not given
Setting: 8-mer, flanks averaged, mean of replicates
Reading: higher = stronger binding
| Sequence | E-score |
| --- | --- |
| CCAAGGAG | -0.158 |
| GCGGTACC | -0.271 |
| ACTAGGGC | -0.0891 |
| ACACATAG | 0.225 |
| CGCCGTGA | -0.0986 |
| CTCGTTAA | 0.0729 |
| AAATTCTC | 0.0378 |
| ACGTCTAC | 0.0558 |
| ACCTAATC | 0.164 |
| TATAGGCA | 0.208 |
| GAGCGAAA | -0.0451 |
| AAATAATA | 0.412 |
| TGATGAAA | 0.197 |
| GACTATAC | 0.099 |
| CCGGCAAC | -0.316 |
| AATAAAGG | 0.0764 |
| AGCCCTAG | -0.094 |
| CCCAACTA | 0.0618 |
| ACTATTCT | -0.00695 |
| ATAAAATG | 0.35 |
| CGATACAC | 0.12 |

Study 3
Target: Histone acetyltransferase KAT6A, both winged helices, GST fusion (KAT6A, Homo sapiens, UniProt Q92794, residues 1-181)
Technique: protein binding microarray
Form: double-stranded DNA, one strand shown
Medium: in vitro
Concentration: not given
Setting: 8-mer, flanks averaged, mean of 2 arrays, mostly near background
Relative to: not given
Reading: higher = stronger binding
Construct (chain): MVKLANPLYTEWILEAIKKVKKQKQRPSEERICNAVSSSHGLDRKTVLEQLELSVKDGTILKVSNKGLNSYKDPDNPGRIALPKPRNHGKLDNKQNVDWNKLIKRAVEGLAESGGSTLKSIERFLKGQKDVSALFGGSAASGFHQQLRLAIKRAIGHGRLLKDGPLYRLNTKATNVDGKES
| Sequence | E-score |
| --- | --- |
| ATTCGTTC | -0.132 |
| AGGCAGGA | -0.27 |
| GGCACACA | -0.056 |
| CGCGCGGA | 0.35 |
| CTAAACCC | -0.00624 |
| CGGATTTC | 0.171 |
| CGGTGGAG | 0.00363 |
| GACAAAAC | -0.109 |
| ATTGATTA | -0.0176 |
| AAAATTGA | -0.134 |
| AATAGTGA | -0.0328 |
| CCTGCTCC | 0.0172 |
| GTTGTGCA | -0.142 |
| AACTTGAG | -0.18 |
| ACCCTGGC | -0.0881 |
| CGAGTTGC | -0.0163 |
| AACTCAAA | -0.172 |
| GAAAGTTC | -0.124 |
| ATGGACTA | -0.131 |
| CCTTCGCA | 0.000475 |
| GCACGCAA | 0.108 |
| GTGAGCAA | -0.14 |
| AAAAACAG | -0.0464 |
| TATAGAGA | -0.115 |
| TAGGCTAA | -0.0694 |

Study 4
Target: PABPC1L2, full length, GST fusion (mouse, UniProt A0ABA7IW68)
Technique: RNAcompete
Form: RNA
Medium: in vitro
Concentration: 20 nM
Setting: 7-mer, probes averaged, single round
Relative to: mean of 7-mers
Reading: higher = stronger binding
Target sequence (chain): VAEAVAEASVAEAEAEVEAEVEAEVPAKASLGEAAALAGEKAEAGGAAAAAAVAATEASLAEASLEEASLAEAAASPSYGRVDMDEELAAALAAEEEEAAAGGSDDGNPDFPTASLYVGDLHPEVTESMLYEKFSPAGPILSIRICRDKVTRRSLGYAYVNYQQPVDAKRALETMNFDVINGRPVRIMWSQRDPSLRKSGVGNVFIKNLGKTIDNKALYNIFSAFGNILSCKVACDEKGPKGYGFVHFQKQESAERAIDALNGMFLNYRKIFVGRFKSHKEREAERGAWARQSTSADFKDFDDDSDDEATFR
| Sequence | 7-mer Z-score |
| --- | --- |
| GUCUCGA | -0.277 |
| GGACUCU | -0.166 |
| CUGGCCA | -0.298 |
| AAUGCGG | 0.396 |
| GCACACG | -0.0808 |
| GGGUCGA | 0.419 |
| AACUAGA | 0.138 |
| AUGGUCC | -0.0246 |
| UGAGUCA | -0.179 |
| CAAUAGG | 0.0334 |
| GCCGUUU | -0.586 |
| CUAGUAG | -0.195 |
| GUCGCCU | -0.449 |
| UCGGCCC | -0.208 |
| CCCUGGC | -0.382 |
| UAAUGCC | -0.151 |
| AUUUUCG | -0.335 |
| CCCUGCU | -0.44 |
| GUUUAAG | -0.217 |
| UGACGUU | -0.347 |
| CAUAACG | 0.0714 |

Study 5
Target: RNA binding protein fox-1 homolog 2, RRM domain, GST-SBP tag (RBFOX2, Homo sapiens, UniProt O43251-10, residues 100-194)
Technique: RNA Bind-n-Seq
Form: RNA
Medium: in vitro
Concentration: 365 nM
Setting: natural RNA segment, single round, ends assumed
Relative to: no-protein control
Reading: higher = stronger binding
Construct (chain): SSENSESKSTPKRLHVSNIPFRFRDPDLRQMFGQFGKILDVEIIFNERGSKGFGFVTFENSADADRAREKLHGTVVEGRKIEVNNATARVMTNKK
| Sequence | RBNS enrichment (R) |
| --- | --- |
| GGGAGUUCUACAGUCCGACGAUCGGGACCCCUGGUUGGGGAACAGGUGAGUUCUAUUUGAGACUUCCAGCCCUAGAAAGCUGCCUCCGUCCAGAAAUGCCUCUCACACCAGGAGCUCGGCCCUCUCUUUGUAGUGGAAUUCUCGGGUGCCAA | 0.294 |
| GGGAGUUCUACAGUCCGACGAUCUAUAUGGCUUUAUGUAGUAAUAGUUUUCUGACUAAAAUUUUGUUUUUUAUUUUUUGUAAUUUAUCUUUAACUCCUUUUGCAUUUUGUAUAACAGAUUGCUUAACUUCUACUGGAAUUCUCGGGUGCCAA | 2.53 |
| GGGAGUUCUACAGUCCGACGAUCACAUUAACUGCUCAAAUACAAGGAAGUGGCCCAAUGAACAUGGUUGUGGGAGGGGAAAGGAGAAACAAAGCUAGUCAGAUGUGAAUUGUAUCUGUUGUAAUAAACAUGUUUGGAAUUCUCGGGUGCCAA | 1.81 |
| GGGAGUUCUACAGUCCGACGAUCGUGUCCCCAAGAGUUCCUUGUCACCUCUGUGGUGGGAAGGAAAGUAUGGUUUCCCCAGGUCUGAACUGGGUACCCCCAGGGUGUUUACUAACUCUGGUGAAGGGUUUGGAUGGAAUUCUCGGGUGCCAA | 0.286 |
| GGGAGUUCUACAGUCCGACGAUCCGGGUUCAAGCGAUUCUUCUGCCUCAGCCUCCCAAGUAGUUGGGAUUACAGACAUGUGCCACCACGCCUGGCUAAUUUUUGUAUUUUUAGUAGAGACAGGGUUUCACCAUUGGAAUUCUCGGGUGCCAA | 0.337 |
| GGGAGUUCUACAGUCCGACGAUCGGAAAGAAAAAGAAAAAGCUGUACUUGGGAGGGGGAAGCUUCAUAUUUAUUUGGUUAUUCAAAAUACAUAUCAGAGUUUGGGUUUCCAGUCUUAGUUGCAUUUGUUGUUUUGGAAUUCUCGGGUGCCAA | 1.61 |
| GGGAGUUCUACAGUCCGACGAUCCACUUAACUAUACGUACUUUAUCUCUGGUAACACUAGAAUGCUGUGGUCUUGAGGGAAUGUUAGCAAGGAACACAUAGAAGAUUUGGUGUUUCAUAAGCCUGUCUAGGUGUGGAAUUCUCGGGUGCCAA | 6.2 |
| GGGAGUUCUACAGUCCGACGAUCCUCCUGGAAGACAAGUGCCUUCUCCCUCCAUGGAUCUGUGAUCUUCCCAGCUCUGCAUCAACACAGCAGCCUGCAGAUAACACUUGGGGGGACCUCAGCCUCUAUUCGCAUGGAAUUCUCGGGUGCCAA | 1.15 |
| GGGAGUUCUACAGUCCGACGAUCUACAGAAGAAAUAGUUGCCACUGUCUAGGACAGUGCUGAAGCUAGGUGGUUAAACGGGUAACAGAAAUACUGUAUUGUGAGAAAUGACACAACAAAAGCCGGCAGGCAUCUGGAAUUCUCGGGUGCCAA | 0.42 |
| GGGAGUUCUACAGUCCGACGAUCAUCAUAUUCUGUGCUUUUUCAAUCACUAGUGCAGAAUAGGCUGCAUUUGACACAGACUGUUAGGCAAUAUUGAUUUUUUUGUUUUGUUUUUAUUUGGUUUUAUCUGAGAUUGGAAUUCUCGGGUGCCAA | 2.95 |
| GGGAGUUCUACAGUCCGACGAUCUCUUUCUUACGAGUUUGCCGUUCUCACUUCUGUGGGCUCCUAUACCUUGAGUGGGAUGAGUCUUAGUGGGAAACAGUGCCGUCCGAGGUGGGAUGCGAUGAGAAGAUGUGUGGAAUUCUCGGGUGCCAA | 0.452 |
| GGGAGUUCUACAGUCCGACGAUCUUUAUCACAUUUUAAUACCACAGCACUUAUAAUGAUGUCACUACAUAUAGAAGCUCAAAGUUAAGGGAUUUGCUGAAGACUGUAAAGUUAAUGGAAGAAUUGAGACAAAAUGGAAUUCUCGGGUGCCAA | 0.376 |

A few entries again (study 2):
| Sequence | E-score |
| --- | --- |
| AATAAAGG | 0.0764 |
| GAGCGAAA | -0.0451 |
| CTCGTTAA | 0.0729 |
| GACTATAC | 0.099 |
| AAATTCTC | 0.0378 |
| TGATGAAA | 0.197 |
| CGCCGTGA | -0.0986 |
| ACTAGGGC | -0.0891 |
| CCAAGGAG | -0.158 |
| ACACATAG | 0.225 |
| AAATAATA | 0.412 |
| ACCTAATC | 0.164 |
| TATAGGCA | 0.208 |
| CGATACAC | 0.12 |
| ACGTCTAC | 0.0558 |
| ATAAAATG | 0.35 |
